Published values from different studies.
Numbered parts are unrelated; each lists some results of a single study.

Study 1
Target: Sal-like protein 4, full length isoform B (SALL4, Homo sapiens, UniProt Q9UJQ4-2, residues 1-616)
Technique: universal PBM
Molecule type: double-stranded DNA, one strand shown
Medium: in vitro
Tested at: not given
Notes: 8-mer, flanks averaged, mean of replicates
Reading: higher = stronger binding
Target sequence (chain): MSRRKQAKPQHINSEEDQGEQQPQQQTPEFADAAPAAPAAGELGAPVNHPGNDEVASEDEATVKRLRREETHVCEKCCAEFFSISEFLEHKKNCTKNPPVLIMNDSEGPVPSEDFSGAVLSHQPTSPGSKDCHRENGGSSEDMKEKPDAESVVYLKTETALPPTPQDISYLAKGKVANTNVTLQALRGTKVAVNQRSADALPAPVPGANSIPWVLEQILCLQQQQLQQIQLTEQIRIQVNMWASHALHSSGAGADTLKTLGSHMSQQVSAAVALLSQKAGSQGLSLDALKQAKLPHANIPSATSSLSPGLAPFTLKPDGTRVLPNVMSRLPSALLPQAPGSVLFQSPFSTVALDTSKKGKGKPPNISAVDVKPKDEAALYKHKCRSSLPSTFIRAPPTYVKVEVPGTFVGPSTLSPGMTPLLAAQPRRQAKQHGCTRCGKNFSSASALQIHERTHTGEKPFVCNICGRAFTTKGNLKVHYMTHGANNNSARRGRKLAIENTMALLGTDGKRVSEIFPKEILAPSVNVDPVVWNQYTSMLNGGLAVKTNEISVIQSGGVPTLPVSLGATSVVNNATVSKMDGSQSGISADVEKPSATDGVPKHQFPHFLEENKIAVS
Strand	E-score
CTCCAAAG	-0.0904
CCAAGCGC	-0.16
ACTTATAC	0.26
AAAACTTG	0.27

Study 2
Target: Interferon regulatory factor 5, full length, phosphomimetic (IRF5, Homo sapiens, UniProt Q13568-2, residues 1-514, S451D/S453D/S456D/S462D)
Technique: protein-binding microarray
Molecule type: double-stranded DNA, one strand shown
Medium: in vitro
Tested at: 940 nM top
Notes: 60-bp whole probe
Together with: salmon DNA 0.4 mg/ml
Baseline: random background probes
Reading: higher = stronger binding
Strand	fitted relative affinity
GCCTAGCACGACGGGTTCCTTATCCTGACGTGCTAGGTCTTGATTCGCTTGACGCTGCTG	0.148 z-score
GCCTAGCACGACGGTTTCGACACTGGCGACGTGCTAGTCTTGATTCGCTTGACGCTGCTG	7.05 z-score
GCCTAGCACGGCCATTTCCCTTGCCGCGCGTGCTAGGTCTTGATTCGCTTGACGCTGCTG	0.602 z-score

Study 3
Target: Histone acetyltransferase KAT6A, both winged helices, GST fusion (KAT6A, Homo sapiens, UniProt Q92794, residues 1-181)
Technique: protein binding microarray
Molecule type: double-stranded DNA, one strand shown
Medium: in vitro
Tested at: not given
Notes: 8-mer, flanks averaged, mean of 2 arrays, mostly near background
Baseline: not given
Reading: higher = stronger binding
Construct (chain): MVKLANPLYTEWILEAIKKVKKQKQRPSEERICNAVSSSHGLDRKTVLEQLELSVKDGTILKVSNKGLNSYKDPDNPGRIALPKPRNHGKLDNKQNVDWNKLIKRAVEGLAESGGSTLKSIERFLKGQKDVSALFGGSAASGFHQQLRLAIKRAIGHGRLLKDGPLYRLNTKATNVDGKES
Strand	E-score
ACATTGTG	-0.0877
GAGTTAGC	-0.132
CGGATTAG	0.193
AGATACTA	-0.0586

Single results of other studies
Substance	target	test	system	setting	how to read	quantity	result
PhoQ, residues 284 288 289 292 302 303 TLSLKA	PhoP, residues 12 14 15 18 19 NFCKL (Escherichia coli, UniProt P23836)	Sort-seq, item: YFP reporter	E. coli	PhoQ-PhoP variant library, together with: 10 µM Mg2+	baseline: high Mg2+ state, higher = stronger signaling	fold induction	1.33

Repeated from above (study 3):
Strand	E-score
CGGATTAG	0.193
AGATACTA	-0.0586
